Published values of several laboratories.
Each numbered part is a random draw from the data of one study; scales do not carry over between parts.

Set 1 — method: RNA Bind-n-Seq; form: RNA; medium: in vitro; concentration: 365 nM; baseline: no-protein control; reading: higher = stronger binding
Target: RNA binding protein fox-1 homolog 2, RRM domain, GST-SBP tag (RBFOX2, Homo sapiens, UniProt O43251-10, residues 100-194)
Notes: natural RNA segment, single round, ends assumed
Shared flanks, not repeated: GGGAGUUCUACAGUCCGACGAUC … UGGAAUUCUCGGGUGCCAA
Target sequence (chain): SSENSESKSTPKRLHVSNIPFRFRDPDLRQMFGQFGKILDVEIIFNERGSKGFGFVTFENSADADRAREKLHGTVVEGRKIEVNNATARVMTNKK
| Sequence | RBNS enrichment (R) |
| --- | --- |
| AGGCUUUCCAUUUAACAUGGAAUCCUUCUCCCCAAGAAGGCUUCUUCCUUGUUUUAGAGGAAGGUACUGCCUUUUUGGACUUAGGGAUGUCAUGGGACCUCAGUAACGAG | 0.232 |
| GGAAUAAUAGUAAUAAAUGCACUUUUCACACUAAAAGUUUCUUUGUUCUCCUGUUAAGCCUAGAUCUUUCCCUAGUAGAUUGCAAACUCAACAGUCUGUGUGAUCCCAAA | 0.295 |
| UCAGCUCCUGCUGCCACCAACCCAGCCACUGUCUAGCACCCCUCCCCUGUCCCCACUCCCACCCCCUAGGGUCCUUGCUCCCAGUAUCUUCCUACAGGGAAGAAGAGCAA | 0.954 |
| GGUGUAAGUGACAUGAUGUGGCCAAAAAUCCAAACUGUGCAGUUGCGUUGUGACAAACAUGCAAUGUGCUGUAAAAAUUCAAUACAGUUUAAAUAAAAUCUCUAUAUUAG | 0.317 |
| CAUUUCAGCAUUUGGCAAGUUCUCUCUUGCUGGCGUCAGAGUAGCUGGCCCAGCUCUUAGCUUGUUCUGAGGGUUCUGCUGUGAGGUGAGGGCCCCAUCUCAGCAUCGUA | 1.61 |
| CUCUCUGUAAUUCUGCCCCACUCAUUUGUUUACCCUGGGUUUUAUACAGUUCUCUUCCUUCUCCCCUCCCACCUUUCCCUGGCUUUUUGCCUCCAUUCCAUGAGGCAUAC | 1.09 |
| AUCAAUGUUGUUCGGUCAGCCCUUCCCUAAUUACACCUAUCCCCUACACAUACAUGCACAUAGACACACACAUGAACACACUGAAGAUAUUUCCUUCAGGUGUGUGUAAA | 0.544 |
| GUCAAGAAUUCCAGAGAAGGCUGCUCCUAAAAUGUCUACUUGCAGCCCAAUACCAGAGCAUAAACUAUCCAUUCUGGGGUCUGGCUUUAGAAAUCAUCUUUGUGGGAAGA | 0.964 |
| GUUUGGAAAUGAUGUACAUCUUGACCAUUGCACUGUUGGAACUUAGUCCCUUCUGUUUUAAAGGAGGCAUUUUGGAUAUUAAGCAACUUAAUUUGAAAGAACUUCUUUUG | 0.289 |
| GGGAAGGGAGAUCACCACGUCCACAGAAUCACUACAUUUAGAGUUGAGCUCUCAGUUGUACCUCCAACCCCUUUCUCCGGGACCAGCUAUGUGGUCCAGCUGUUUUAAUU | 0.399 |
| AAGGACAUUCUUUUUUAUUGGCGGCUCUGUGACCCCUAGCCGCUUGCACCCGCUCUCUGUUGUACACUUUCAAGCAACACUUUUUCAGACUAAAGGCCAAACAAAAGCUA | 0.275 |
| CGCCCACCACAGGCUCUUAAUGGGGCCGGGUCAGUCCUACAUGUGAGAUGGGUUAGGGCAAGUCUUUGCCAUCCCCCAGAUGGCUCUGUCUUCUUGUGUAUGGCAGGGCU | 0.252 |

Set 2 — method: universal PBM; form: double-stranded DNA, one strand shown; medium: in vitro; concentration: not given; reading: higher = stronger binding
Target: Sal-like protein 4, full length isoform B (SALL4, Homo sapiens, UniProt Q9UJQ4-2, residues 1-616)
Notes: 8-mer, flanks averaged, mean of replicates
Target sequence (chain): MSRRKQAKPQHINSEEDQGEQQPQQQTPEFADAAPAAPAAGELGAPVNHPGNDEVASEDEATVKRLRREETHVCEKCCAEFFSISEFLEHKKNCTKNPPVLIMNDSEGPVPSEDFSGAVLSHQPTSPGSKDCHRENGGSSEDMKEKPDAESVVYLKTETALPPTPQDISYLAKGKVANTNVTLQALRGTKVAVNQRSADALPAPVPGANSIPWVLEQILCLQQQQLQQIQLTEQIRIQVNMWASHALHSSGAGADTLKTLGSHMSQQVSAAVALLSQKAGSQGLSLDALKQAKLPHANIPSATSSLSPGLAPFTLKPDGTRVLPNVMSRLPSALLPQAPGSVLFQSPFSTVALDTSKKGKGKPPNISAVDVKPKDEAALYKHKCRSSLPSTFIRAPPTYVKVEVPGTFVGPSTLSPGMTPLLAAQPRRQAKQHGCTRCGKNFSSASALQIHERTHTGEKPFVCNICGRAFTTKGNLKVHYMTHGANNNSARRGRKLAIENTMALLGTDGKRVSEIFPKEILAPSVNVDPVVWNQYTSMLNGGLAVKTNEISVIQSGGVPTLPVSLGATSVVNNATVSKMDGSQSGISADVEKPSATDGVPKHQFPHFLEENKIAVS
| Sequence | E-score |
| --- | --- |
| GCTGCCCC | -0.326 |
| GGTGCGCA | -0.0928 |
| CCCGCGGC | -0.305 |
| AGTACTTA | 0.148 |
| ACGATTCG | -0.0354 |
| AAACAAAG | 0.104 |
| CCAAGGTA | -0.12 |
| ACGATGGC | -0.0309 |
| CACGAGTA | 0.0517 |
| AGAGCCAC | -0.168 |
| AGAGTACA | 0.0799 |
| ACAGCAAA | 0.183 |
| GTGTGGAA | 0.0922 |
| ATCGATCG | 0.0422 |
| ATATGCGA | 0.239 |
| CTGATCAC | -0.0119 |
| AGGCATGA | -0.0591 |
| CATTTAAC | 0.234 |
| CTTTGGAC | -0.0723 |
| ACTCCGTA | -0.105 |
| CGATTCCA | -0.0428 |
| GTAGAGAA | -0.0643 |
| AATATGGG | 0.253 |
| CAAGGTCG | -0.164 |
| AGACAGAG | -0.0283 |

Set 3 — method: protein-binding microarray; form: double-stranded DNA, one strand shown; medium: in vitro; concentration: 0.8 µM; notes: whole 60-bp probe, no competitor; reading: higher = stronger binding; shared flanks, not repeated: … GTCTTGATTCGCTTGACGCTGCTG
Target: Centromere-binding protein 1, full length, N-terminal tag (CBF1, Saccharomyces cerevisiae, UniProt P17106, residues 1-351)
UniProt P17106, sequence (whole entry, looked up): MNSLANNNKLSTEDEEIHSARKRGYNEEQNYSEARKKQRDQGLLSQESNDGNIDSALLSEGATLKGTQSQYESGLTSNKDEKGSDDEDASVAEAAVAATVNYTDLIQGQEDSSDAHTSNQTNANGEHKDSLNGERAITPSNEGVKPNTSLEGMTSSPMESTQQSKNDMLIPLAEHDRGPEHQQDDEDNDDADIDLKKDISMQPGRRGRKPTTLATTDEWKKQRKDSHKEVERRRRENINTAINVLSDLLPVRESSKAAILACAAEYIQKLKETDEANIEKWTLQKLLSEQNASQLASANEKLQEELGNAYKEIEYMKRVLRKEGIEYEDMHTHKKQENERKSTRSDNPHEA
| Sequence | fluorescence intensity [a.u.] |
| --- | --- |
| CTATAACATTAAGGTCATGTGTTGATAGCAGGTTTC | 2020 |
| CTATCAGTTCTCGAGCACGCAGAGAAAAGTAAATTC | 534 |
| CCTAACTACTATAATATGCACGTATAGCTTCGTACA | 534 |
| GAATTGTTGTACCATCACCATGTGCTATTCCATTAG | 744 |
| GAACTGTGCAATGATCACGAAAGACAAATTTCGTAG | 807 |
| CTACATAAGGGTTGTCCCGTGGTCGGAGCCCTTTTC | 623 |
| TGTACGAAGCTATTTTACCTGATTATAGTAGTTAGG | 519 |
| GAACGGGAACGAACGTTCGTGCGGGGTGATGGTTAG | 508 |
| GAATCCTTTGGTTTGCACGCGCGCTATGTTATCTAG | 595 |
| TGTACGAAGCTATAGCACGAAAGTATAGTAGTTAGG | 504 |
| CTAATTGAAGATGTACAGGTGATTAATTACGTCTTC | 791 |
| TGTACGAAGCTATACGTGATGAATATAGTAGTTAGG | 597 |
| GAATATTTTTCTTTCCTCATGACCATTTAGTATTAG | 829 |
| CCTAACTACTATATCATCGTGTGATAGCTTCGTACA | 556 |
| GAATAGTTATTTTGTGACACAAAAACAAAATCGTAG | 563 |
| GAATTGATTTGATCCCCCGTGGATTTTGAAAAATAG | 564 |
| GAAGTCTATAGTGCAAACGTGATCAATGTAAAGTAG | 2380 |

Set 4 — method: RNA Bind-n-Seq; form: RNA; medium: in vitro; concentration: 1 µM; notes: whole 134-nt RNA, ends assumed; with: 150 mM KCl; baseline: input library; reading: higher = stronger binding
Target: Ras GTPase-activating protein-binding protein 1, RRM domain (G3BP1, Homo sapiens, UniProt Q13283)
UniProt Q13283, sequence (whole entry, looked up): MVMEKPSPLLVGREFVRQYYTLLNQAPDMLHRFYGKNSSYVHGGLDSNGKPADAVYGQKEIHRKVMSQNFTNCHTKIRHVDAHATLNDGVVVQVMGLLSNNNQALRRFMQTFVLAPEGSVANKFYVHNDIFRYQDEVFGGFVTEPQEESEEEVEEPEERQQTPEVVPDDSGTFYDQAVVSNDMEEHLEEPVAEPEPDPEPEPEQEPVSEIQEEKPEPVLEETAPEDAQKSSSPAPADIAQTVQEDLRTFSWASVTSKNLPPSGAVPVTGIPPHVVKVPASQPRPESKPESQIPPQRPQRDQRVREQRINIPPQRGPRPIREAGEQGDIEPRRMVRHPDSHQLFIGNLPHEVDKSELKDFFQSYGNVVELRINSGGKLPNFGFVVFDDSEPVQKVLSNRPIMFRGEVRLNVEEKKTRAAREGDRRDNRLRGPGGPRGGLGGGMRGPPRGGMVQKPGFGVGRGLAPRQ
Shared flanks, not repeated: GGGAGUUCUACAGUCCGACGAUC … UGGAAUUCUCGGGUGUCAAGG
| Sequence | log2 enrichment |
| --- | --- |
| UCAAGUCCUGUGCUACACAUCGUAUGUACCGAAUCGGGGAAGGGAAGGGGAAGGGAAAGUAUUAUGUUACGCCGUUCGGAUCUGCACUUC | 0.818 |
| UAACUUUAGAGGAGGAUCUGAGGGAUAUGGCAGUGGACGUGGAUUUGGGGAUGGCUAUAAUGGGUAUGGAGGAGGACCUGGAGGUGGCAA | -0.414 |
| GUCCUGUGCUACACAUCGUAUGUACCGAAUCGGGAAAAAAAGGGAAAGGGAAAAAGGGAAAGUAUUAUGUUACGCCGUUCGGAUCUGCAC | 0.181 |
| AGUCCUGUGCUACACAUCGUAUGUACCGAAUCAAACCCAAAUUUAAACCCCCCCAAAAAAGUAUUAUGUUACGCCGUUCGGAUCUGCACU | -0.117 |
| GCAGGAAGUAAAAACAAAUGGAAAUGCUUCGGAUAGUGGCAGGGGUGGGGGUUGCUAAGGAAAGGGUGCGAUGGGAGUGGGUAAAGAGUU | 1.28 |
| UGGCCCUGGUGGCAUGCGGGGAGGAAGAGGUGGCCUCAUGGAUCGUGGUGGUCCCGGUGGAAUAUUCAGAGGUGGCCGUGGUGGAGACAG | 0.617 |
| CACAGACAACACGCAUCCACACAGACACAGAGGGAAGGGGUUGGGAUGGGGACAGGGUGCACAGCAGGGCGGGGUAGGACCCCAGCCCCU | 0.0502 |
| UCCUGUGCUACACAUCGUAUGUACCGAAUCGGGAAAAAGGGUUUUUGGGAAAAAAAGGGAAAGUAUUAUGUUACGCCGUUCGGAUCUGCA | -0.0309 |
| AGUCCUGUGCUACACAUCGUAUGUACCGAAUCGGGUGGGAAAAAGGGAAAAAAAGGGAAAGUAUUAUGUUACGCCGUUCGGAUCUGCACU | 0.477 |
| UUUCCAGCAGUACCAGCUCCAGCCAGGAUCACCCUCUCUACUCUGGGCACCCAUCCCUUCCACUAAGUGGUGCUAUUGCUGCUUUUGCCU | 0.227 |
| CAAGUCCUGUGCUACACAUCGUAUGUACCGAAUCAAACCCAAACCCAAAUUUAAAAAAGUAUUAUGUUACGCCGUUCGGAUCUGCACUUC | -0.112 |
| CAAGUCCUGUGCUACACAUCGUAUGUACCGAAUCGGGGAAAGGGGUGGGGUGGGGAAAGUAUUAUGUUACGCCGUUCGGAUCUGCACUUC | 1.09 |
| UGCUAGGCAAUGGAUCACUUGGAGUCCUUUAUUGCUGAAUGUGAUCGGAGAACUGAGCUCGCCAAGAAGCGGCUGGCAGAAACACAGGAG | 0.07 |
| GUCCUGUGCUACACAUCGUAUGUACCGAAUCGGGGCCCCCGGCCCCCGGCCCCCGGGGAAAGUAUUAUGUUACGCCGUUCGGAUCUGCAC | -0.551 |

Repeated from above (set 3):
| Sequence | fluorescence intensity [a.u.] |
| --- | --- |
| CTACATAAGGGTTGTCCCGTGGTCGGAGCCCTTTTC | 623 |
| TGTACGAAGCTATTTTACCTGATTATAGTAGTTAGG | 519 |
| GAACGGGAACGAACGTTCGTGCGGGGTGATGGTTAG | 508 |
| GAATCCTTTGGTTTGCACGCGCGCTATGTTATCTAG | 595 |
